Published values collected from several papers.
Each line is one published result; not all experiments were run side by side. Numbers after ± are the reported error.

The fraction absorbed of `O=c1[nH]c(=O)n(C2OC(CO)C(O)C2O)cc1-n1nnc2c1CCC1C(CO)C1CC2` (mixture of isomers) is reported as 20% (HDM-PAMPA; 75 µM, 16 h, ambient).
For `COc1ccc(S(=O)(=O)N/N=C/c2ccc(C#N)cc2)cc1OC`, the fraction absorbed was 100% (PAMPA-GIT; 500 µM, 8 h).
With `COC1C=COC2(C)Oc3c(C)c(O)c4c(c3C2=O)C2=NC3(CCN(CC(C)C)CC3)NC2=C(NC(=O)C(C)=CC=CC(C)C(O)C(C)C(O)C(C)C(OC(=O)Nc2cscn2)C1C)C4=O` (centres unmarked) the fraction unbound was 0.018 (human plasma).
`Polymyxin B` — result for “fraction in filtrate”: 0% (ultrafiltration ELISA; 0.9% NaCl solution; 1 µg/mL, 10 kDa MMCO filter; baseline: positive control).
The fraction unbound of `COC1C=COC2(C)Oc3c(C)c(O)c4c(c3C2=O)C2=NC3(CCN(CC(C)C)CC3)NC2=C(NC(=O)C(C)=CC=CC(C)C(O)C(C)C(O)C(C)C(OC(=O)Nc2cnccn2)C1C)C4=O` (centres unmarked) is reported as 0.0066 (caseum).
`COc1ccc(S(=O)(=O)N(C)/N=C/c2ccc(C#N)cc2)cc1OC` has a fraction absorbed of 100% (PAMPA-GIT; 500 µM, 8 h).
`CC(C)(Sc1cc[n+]([O-])cc1-c1ccc(C#N)c2ccccc12)C(=O)OC1OC(C(=O)O)C(O)C(O)C1O` (centres unmarked): “fraction excreted unchanged” 11.9% (urine; oral, 15 mg, 72 h, severe renal impairment; baseline: dose).
With `COC1C=COC2(C)Oc3c(C)c(O)c4c(c3C2=O)C2=NC3(CCN(CC(C)C)CC3)NC2=C(NC(=O)C(C)=CC=CC(C)C(O)C(C)C(O)C(C)C(OC(=O)c2cncnc2)C1C)C4=O` (centres unmarked) the fraction unbound was 0.094 (human plasma).
For `CC(C)(Sc1ccncc1-c1ccc(C#N)c2ccccc12)C(=O)OC1OC(C(=O)O)C(O)C(O)C1O` (centres unmarked), “fraction excreted unchanged” read 4.32% (urine; oral, 15 mg, 72 h, severe renal impairment; baseline: dose).
With `O=C(Cc1ccccc1)Nc1nc2ccccc2n1Cc1ccccc1` the fraction unbound was 38.6% (mouse liver microsomes; 0.5 µM, 1 mg/mL protein).
With `CCCCc1oc2ccccc2c1C(=O)c1cc(I)c(OCCNCC)c(I)c1` the fraction unbound was 0.012 ± 0.004 (ultracentrifugation; human liver microsomes 0.25 mg/mL protein; 2 h, pH 7.4).

Repeated from above:
With `COC1C=COC2(C)Oc3c(C)c(O)c4c(c3C2=O)C2=NC3(CCN(CC(C)C)CC3)NC2=C(NC(=O)C(C)=CC=CC(C)C(O)C(C)C(O)C(C)C(OC(=O)c2cncnc2)C1C)C4=O` (centres unmarked) the fraction unbound was 0.094 (human plasma).
